Measured values of several laboratories.
Each line is one published result; not all experiments were run side by side. “And” joins repeats or separate records; there may be more than shown. ± gives the spread as reported.
Cnr1: Cannabinoid receptor 1 (Cnr1, Rattus norvegicus, UniProt P20272)
Chain of UniProt P20272 (whole entry, looked up): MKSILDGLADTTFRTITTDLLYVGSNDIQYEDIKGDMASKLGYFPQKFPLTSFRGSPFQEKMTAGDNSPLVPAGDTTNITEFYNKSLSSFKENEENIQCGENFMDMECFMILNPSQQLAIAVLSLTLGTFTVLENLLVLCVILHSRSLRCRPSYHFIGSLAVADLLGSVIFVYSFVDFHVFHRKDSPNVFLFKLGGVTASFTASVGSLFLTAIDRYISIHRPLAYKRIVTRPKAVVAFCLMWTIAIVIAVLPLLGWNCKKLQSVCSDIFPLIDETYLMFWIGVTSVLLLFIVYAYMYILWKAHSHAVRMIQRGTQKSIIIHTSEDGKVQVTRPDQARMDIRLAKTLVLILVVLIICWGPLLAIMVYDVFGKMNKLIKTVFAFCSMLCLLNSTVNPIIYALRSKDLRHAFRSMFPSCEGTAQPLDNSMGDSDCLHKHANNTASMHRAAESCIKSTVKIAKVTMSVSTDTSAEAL
MSP: Male-specific submandibular salivary gland protein (MSP, Mesocricetus auratus, UniProt Q9QXU1)
Chain of UniProt Q9QXU1 (whole entry, looked up): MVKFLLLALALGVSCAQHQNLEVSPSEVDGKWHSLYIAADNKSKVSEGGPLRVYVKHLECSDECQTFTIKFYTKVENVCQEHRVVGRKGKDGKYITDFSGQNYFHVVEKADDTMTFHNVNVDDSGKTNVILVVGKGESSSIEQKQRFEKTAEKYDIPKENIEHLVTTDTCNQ
Na(+)/H(+) exchange regulatory cofactor NHE-RF2 PDZ domain 2: Na(+)/H(+) exchange regulatory cofactor NHE-RF2, PDZ domain 2 (Homo sapiens, UniProt Q15599)
Chain of UniProt Q15599 (whole entry, looked up): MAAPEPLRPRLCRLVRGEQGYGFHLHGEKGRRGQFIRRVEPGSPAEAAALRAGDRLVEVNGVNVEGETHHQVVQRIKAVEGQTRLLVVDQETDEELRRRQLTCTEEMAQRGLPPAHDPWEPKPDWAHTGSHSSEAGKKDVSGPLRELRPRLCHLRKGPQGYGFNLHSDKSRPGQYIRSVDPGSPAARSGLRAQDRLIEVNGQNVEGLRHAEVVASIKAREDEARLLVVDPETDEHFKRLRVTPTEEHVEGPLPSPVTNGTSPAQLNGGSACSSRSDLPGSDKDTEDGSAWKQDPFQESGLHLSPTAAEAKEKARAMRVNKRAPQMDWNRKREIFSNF
Drd3: D(3) dopamine receptor (Drd3, Rattus norvegicus, UniProt P19020)
Chain of UniProt P19020 (whole entry, looked up): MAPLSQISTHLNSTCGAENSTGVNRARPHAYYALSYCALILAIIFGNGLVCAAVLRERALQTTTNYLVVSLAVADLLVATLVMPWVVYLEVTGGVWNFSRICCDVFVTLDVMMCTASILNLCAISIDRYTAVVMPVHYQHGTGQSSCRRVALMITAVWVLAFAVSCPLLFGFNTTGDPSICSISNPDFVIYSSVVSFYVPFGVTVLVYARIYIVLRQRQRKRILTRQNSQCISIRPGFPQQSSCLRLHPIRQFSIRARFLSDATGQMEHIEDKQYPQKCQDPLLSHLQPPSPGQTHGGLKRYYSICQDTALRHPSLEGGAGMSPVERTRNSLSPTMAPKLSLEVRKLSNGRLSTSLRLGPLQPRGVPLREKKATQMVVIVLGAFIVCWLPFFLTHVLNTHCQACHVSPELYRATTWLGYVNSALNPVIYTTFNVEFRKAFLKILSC
HRH1: Histamine H1 receptor (HRH1, Homo sapiens, UniProt P35367)
Chain of UniProt P35367 (whole entry, looked up): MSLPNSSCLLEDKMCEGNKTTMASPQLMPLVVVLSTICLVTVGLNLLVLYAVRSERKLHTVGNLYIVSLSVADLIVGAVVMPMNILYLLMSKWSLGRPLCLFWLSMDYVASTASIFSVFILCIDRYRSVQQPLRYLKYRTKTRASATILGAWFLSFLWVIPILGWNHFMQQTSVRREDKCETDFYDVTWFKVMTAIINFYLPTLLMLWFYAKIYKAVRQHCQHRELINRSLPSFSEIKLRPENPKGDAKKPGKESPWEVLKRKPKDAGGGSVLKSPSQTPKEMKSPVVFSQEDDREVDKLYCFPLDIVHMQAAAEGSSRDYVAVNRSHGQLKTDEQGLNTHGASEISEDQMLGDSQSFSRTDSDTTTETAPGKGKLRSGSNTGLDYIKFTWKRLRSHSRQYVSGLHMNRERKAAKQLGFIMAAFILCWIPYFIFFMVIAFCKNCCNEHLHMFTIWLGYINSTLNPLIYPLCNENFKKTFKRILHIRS
DXR: 1-deoxy-D-xylulose 5-phosphate reductoisomerase, apicoplastic (DXR, Plasmodium falciparum, UniProt O96693)
Chain of UniProt O96693 (whole entry, looked up): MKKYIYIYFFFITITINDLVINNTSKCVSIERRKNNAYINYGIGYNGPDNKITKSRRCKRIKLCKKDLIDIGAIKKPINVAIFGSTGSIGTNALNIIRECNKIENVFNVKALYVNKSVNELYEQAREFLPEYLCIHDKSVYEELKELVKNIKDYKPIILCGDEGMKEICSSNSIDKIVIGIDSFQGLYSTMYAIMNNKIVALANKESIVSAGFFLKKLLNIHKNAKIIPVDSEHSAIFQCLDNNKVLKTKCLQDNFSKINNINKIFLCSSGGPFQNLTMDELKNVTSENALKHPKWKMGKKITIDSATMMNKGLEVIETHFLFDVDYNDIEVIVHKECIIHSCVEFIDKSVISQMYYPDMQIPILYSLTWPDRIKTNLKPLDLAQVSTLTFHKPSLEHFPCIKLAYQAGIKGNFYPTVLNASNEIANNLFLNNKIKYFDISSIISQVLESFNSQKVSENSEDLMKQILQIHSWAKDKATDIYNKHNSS
APEX1: DNA repair nuclease/redox regulator APEX1 (APEX1, Homo sapiens, UniProt P27695)
Chain of UniProt P27695 (whole entry, looked up): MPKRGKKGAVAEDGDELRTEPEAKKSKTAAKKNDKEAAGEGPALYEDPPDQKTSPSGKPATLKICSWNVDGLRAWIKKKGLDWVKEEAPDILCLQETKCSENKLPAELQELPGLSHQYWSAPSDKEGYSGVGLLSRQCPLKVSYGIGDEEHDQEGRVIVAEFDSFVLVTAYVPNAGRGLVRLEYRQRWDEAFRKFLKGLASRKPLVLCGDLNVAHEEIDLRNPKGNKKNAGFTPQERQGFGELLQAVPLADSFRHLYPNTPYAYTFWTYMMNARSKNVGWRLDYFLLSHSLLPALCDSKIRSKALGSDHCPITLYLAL
FPR1: fMet-Leu-Phe receptor (FPR1, Homo sapiens, UniProt P21462)
Chain of UniProt P21462 (whole entry, looked up): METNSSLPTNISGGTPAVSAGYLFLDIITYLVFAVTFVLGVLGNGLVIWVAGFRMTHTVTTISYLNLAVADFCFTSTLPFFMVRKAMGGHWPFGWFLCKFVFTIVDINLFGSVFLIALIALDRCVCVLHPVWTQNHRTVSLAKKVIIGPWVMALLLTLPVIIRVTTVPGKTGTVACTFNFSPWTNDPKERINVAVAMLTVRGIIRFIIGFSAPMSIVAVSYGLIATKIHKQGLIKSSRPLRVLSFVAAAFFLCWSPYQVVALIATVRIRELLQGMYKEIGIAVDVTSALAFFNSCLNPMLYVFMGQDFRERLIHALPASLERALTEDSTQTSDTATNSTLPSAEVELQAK
P2RY1: P2Y purinoceptor 1 (P2RY1, Homo sapiens, UniProt P47900)
Chain of UniProt Q12884 (whole entry, looked up): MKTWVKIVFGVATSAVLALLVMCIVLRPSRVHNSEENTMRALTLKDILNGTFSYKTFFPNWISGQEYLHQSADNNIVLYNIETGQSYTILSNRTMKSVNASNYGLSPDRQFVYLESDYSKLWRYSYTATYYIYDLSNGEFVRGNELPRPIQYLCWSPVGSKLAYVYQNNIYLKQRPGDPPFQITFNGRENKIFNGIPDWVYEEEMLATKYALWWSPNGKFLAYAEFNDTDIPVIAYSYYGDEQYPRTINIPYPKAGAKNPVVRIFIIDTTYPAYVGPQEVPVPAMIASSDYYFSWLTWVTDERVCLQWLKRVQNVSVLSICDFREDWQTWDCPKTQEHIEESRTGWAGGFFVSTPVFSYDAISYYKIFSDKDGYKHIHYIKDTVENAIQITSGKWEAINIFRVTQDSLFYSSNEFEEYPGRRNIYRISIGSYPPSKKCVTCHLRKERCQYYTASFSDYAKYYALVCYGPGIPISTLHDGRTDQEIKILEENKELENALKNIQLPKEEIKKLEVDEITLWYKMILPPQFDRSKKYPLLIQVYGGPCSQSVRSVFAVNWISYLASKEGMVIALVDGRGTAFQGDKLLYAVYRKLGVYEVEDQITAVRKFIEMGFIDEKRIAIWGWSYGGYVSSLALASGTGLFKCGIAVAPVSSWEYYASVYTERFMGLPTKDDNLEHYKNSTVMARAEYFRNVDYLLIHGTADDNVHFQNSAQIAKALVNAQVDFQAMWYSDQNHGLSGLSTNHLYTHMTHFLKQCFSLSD
Chain of UniProt P47900 (whole entry, looked up): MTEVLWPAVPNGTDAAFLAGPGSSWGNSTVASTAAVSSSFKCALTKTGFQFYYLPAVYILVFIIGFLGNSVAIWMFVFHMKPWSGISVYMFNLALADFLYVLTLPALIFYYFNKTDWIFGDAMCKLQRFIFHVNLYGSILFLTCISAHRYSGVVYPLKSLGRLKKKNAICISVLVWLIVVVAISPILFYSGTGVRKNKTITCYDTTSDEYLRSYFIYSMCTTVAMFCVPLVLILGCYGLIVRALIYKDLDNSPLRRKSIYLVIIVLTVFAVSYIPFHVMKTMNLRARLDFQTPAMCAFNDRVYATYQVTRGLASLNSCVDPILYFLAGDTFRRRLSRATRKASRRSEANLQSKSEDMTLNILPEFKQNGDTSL
Chain of UniProt P35414 (whole entry, looked up): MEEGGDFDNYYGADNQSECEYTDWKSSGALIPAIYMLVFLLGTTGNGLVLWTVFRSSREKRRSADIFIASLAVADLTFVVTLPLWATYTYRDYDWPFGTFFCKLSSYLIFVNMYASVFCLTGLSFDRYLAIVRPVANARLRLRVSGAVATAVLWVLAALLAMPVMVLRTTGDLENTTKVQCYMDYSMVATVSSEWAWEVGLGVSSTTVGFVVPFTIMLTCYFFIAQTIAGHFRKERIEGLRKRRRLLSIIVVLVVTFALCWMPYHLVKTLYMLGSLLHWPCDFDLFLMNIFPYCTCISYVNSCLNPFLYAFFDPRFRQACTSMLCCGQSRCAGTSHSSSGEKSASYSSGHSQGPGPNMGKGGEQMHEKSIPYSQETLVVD
Chain of UniProt Q16539 (whole entry, looked up): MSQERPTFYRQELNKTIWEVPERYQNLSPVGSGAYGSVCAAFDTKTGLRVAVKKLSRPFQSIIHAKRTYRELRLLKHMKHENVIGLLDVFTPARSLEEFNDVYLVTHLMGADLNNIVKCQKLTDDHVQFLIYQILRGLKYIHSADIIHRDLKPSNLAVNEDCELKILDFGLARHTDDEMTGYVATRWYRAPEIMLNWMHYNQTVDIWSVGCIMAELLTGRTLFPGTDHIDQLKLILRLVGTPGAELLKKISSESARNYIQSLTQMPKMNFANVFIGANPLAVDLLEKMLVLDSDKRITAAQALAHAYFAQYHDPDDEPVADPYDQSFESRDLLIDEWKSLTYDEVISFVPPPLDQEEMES

Cc1c(C(=O)NCc2ccc(/N=N/c3ccc4c(c3)COC4)cc2)nn(-c2ccc(Cl)cc2Cl)c1-c1ccc(Cl)cc1  Ki (Cnr1; radioligand binding; rat brain membranes; trans isomer, 454 nm light, together with: [3H]CP55940 0.6 nM): 0.602 ± 0.416 µM
CCCCCC(C)=O  Ki (MSP; binding, fluorescence displacement; together with: 1-AMA 2 µM): 3.46 µM
c1ccc(-c2cc[nH]n2)cc1  Ki (CYP2E1 (Oryctolagus cuniculus, UniProt P08682); inhibitor; pH 7.4, 37 °C, catalytic site, CPR-K56Q and cytochrome b5, together with: 4-nitrophenol): 19 µM
C[C@@H](O)[C@H](N)C(=O)NCC(=O)N[C@@H](CCC(=O)O)C(=O)N[C@H](C(=O)N[C@H](C(=O)N[C@@H](Cc1ccccc1)C(=O)O)[C@@H](C)O)[C@@H](C)O  Ki (Na(+)/H(+) exchange regulatory cofactor NHE-RF2 PDZ domain 2; fluorescence polarization competition; together with: FITC-labelled LPA2 peptide tracer): 14.2 ± 2.2 µM
CCCN(CCC1(O)CC(NC(=O)c2ccccc2OC)C1)[C@H]1CCc2nc(N)sc2C1 (stereo in doubt)  Ki (Drd3; ligand displacement, radioligand; cell membranes): 0.001 µM
CC1(C)C=C(C(=O)OC(C)(C)C)C(=O)CC1  Ki (MAPK14 (Homo sapiens, UniProt Q16539); ligand displacement, FP): 19 µM
COc1cccc(OC)c1-c1cc(C(=O)N[C@H](C(=O)O)C2CCCCC2)nn1-c1ccc(F)cc1  Ki (Apelin receptor (APLNR, Homo sapiens, UniProt P35414); ligand displacement, radioligand; cell membranes): 5.2 µM
N=C(NCCCCCCCCCCN)NCCCc1c[nH]cn1  Ki (HRH1; ligand displacement, radioligand; cell membranes): 0.871 µM
CC[C@H](C(=O)O)[C@H]1CCN[C@@H]1C(=O)O  Ki (NMDA receptor, rat; binding; cortical synaptosomes; together with: [3H]-CGP 39653): 13 µM
CC(C)[C@H](NC(=O)[C@H](Cc1c[nH]c2ccccc12)NC(=O)[C@@H](NC(=O)[C@H](CCC(=O)O)NC(=O)[C@H](Cc1ccccc1)NC(=O)[C@@H](N)CC(=O)O)[C@@H](C)O)C(=O)O  Ki (Na(+)/H(+) exchange regulatory cofactor NHE-RF2 PDZ domain 2; fluorescence polarization competition; together with: FITC-labelled LPA2 peptide tracer): 5.4 ± 1.2 µM
CCCN(CCC1(O)CC(NS(=O)(=O)c2ccccc2F)C1)[C@H]1CCc2nc(N)sc2C1 (stereo in doubt)  Ki (dopamine D1-like receptor, rat; radioligand binding; rat striatal membranes; together with: [3H]SCH23390): 109 ± 2.5 µM
O=C(CCCc1ccccc1)N(O)C/C=C/P(=O)(O)O  Ki (DXR; inhibitor, Lineweaver-Burk plot; together with: DXP varied, NADPH 150 µM): 0.162 µM
COc1cc(O)cc2ccc3cccc(O)c3c12  Ki (alpha-glucosidase (Saccharomyces cerevisiae); inhibitor, Lineweaver-Burk secondary plot): 31.8 µM
CCCN(CCC1(O)CC(NC(=O)c2ccccc2)C1)[C@H]1CCc2nc(N)sc2C1 (stereo in doubt)  Ki (Drd3; ligand displacement, radioligand; cell membranes): 0.00074 µM
O=C(Cc1cccs1)N[C@@H](Cn1cc(-c2cccc(-c3nn[nH]n3)c2)nn1)B(O)O  Ki (Beta-lactamase ADC-7 (Acinetobacter baumannii, UniProt Q6DRA1); inhibitor; 5 min preincubation, pH 7.4, room temperature, together with: nitrocefin): 0.099 ± 0.002 µM
CCn1c2ccccc2c2cc(/C=N/Nc3cc(C)nc4cc5c(cc34)OCO5)ccc21  Ki (APEX1; enzyme activity, inhibitor): 0.12 µM
CSC(=N)NCCCc1c[nH]cn1  Ki (HRH1; ligand displacement, radioligand; cell membranes): > 100 µM
O=C(O)C(Cc1c[nH]nn1)[C@@H]1CCN[C@H]1C(=O)O (mixture of isomers)  Ki (NMDA receptor, rat; binding; cortical synaptosomes; together with: [3H]-CGP 39653): > 100 µM
Nc1ccc(-c2ccc3cc(OCCOCCN4CCSC4=O)ccc3n2)cc1  Ki (Amyloid-beta precursor protein, amyloid-beta plaques (APP, Homo sapiens, UniProt P05067); radioligand competition binding; AD brain homogenate; 2 h, 37 °C, together with: [3H]PIB): > 1 µM
CCCN(CCC1(O)CC(NC(=O)c2ccc(OC)cc2)C1)[C@H]1CCc2nc(N)sc2C1 (stereo in doubt)  Ki (Drd3; ligand displacement, radioligand; cell membranes): 0.0007 µM
N=C(N)NCCCCCCCCCCNC(=N)NCCCc1c[nH]cn1  Ki (HRH1; ligand displacement, radioligand; cell membranes): 0.813 µM
O=C(NNC(=NS(=O)(=O)c1ccc(-n2nc(C(F)(F)F)cc2-c2cccs2)cc1)N1CCCC1)c1ccc(Cl)cc1  Ki (Aminopeptidase N (ANPEP, Homo sapiens, UniProt P15144); enzyme activity, inhibitor; human placenta; 30 min preincubation, 37 °C, together with: L-Leu-AMC substrate): 1.01 µM
Cc1c(/N=N/c2cccc(Cl)c2Cl)nn(-c2ccc(Cl)cc2Cl)c1-c1ccc(Cl)cc1  Ki (Cnr1; radioligand binding; rat brain membranes; trans isomer, 454 nm light, together with: [3H]CP55940 0.6 nM): 0.521 ± 0.2 µM
COCCN1C(=O)C(O)=C(C(=O)c2ccc(C)cc2)C1c1cc(OC)ccc1OC (stereo not shown)  Ki (FPR1; ligand displacement in cells): < 2 µM
CNc1nc(C#CCCCCc2cn(CCNC(C)=O)nn2)nc2c1ncn2[C@H]1C[C@H](OP(=O)(O)O)[C@]2(COP(=O)(O)O)C[C@H]12  Ki (P2RY1; ligand displacement, radioligand; cell membranes): 8.3 µM
N=C(N)NCCCCCCCCNC(=N)NCCCc1c[nH]cn1  Ki (HRH1; ligand displacement, radioligand; cell membranes): > 3.16 µM
O=C(O)[C@H]1NCC[C@@H]1[C@@H](C(=O)O)c1ccccc1  Ki (NMDA receptor, rat; binding; cortical synaptosomes; together with: [3H]-CGP 39653): > 100 µM
CCCCCCN1C(=O)C(O)=C(C(=O)c2ccc(C)cc2)C1c1ccc(OC)cc1OC (stereo not shown)  Ki (FPR1; ligand displacement in cells): < 2 µM
Cc1c(C(=O)NCc2ccccc2/N=N/c2ccccc2)nn(-c2ccc(Cl)cc2Cl)c1-c1ccc(Cl)cc1  Ki (Cnr1; radioligand binding; rat brain membranes; trans isomer, 454 nm light, together with: [3H]CP55940 0.6 nM): 0.224 ± 0.148 µM
CCCN(CCC1(O)CC(NS(=O)(=O)c2ccc(Cl)cc2)C1)[C@H]1CCc2nc(N)sc2C1 (stereo in doubt)  Ki (dopamine D1-like receptor, rat; radioligand binding; rat striatal membranes; together with: [3H]SCH23390): 45.9 ± 2.49 µM
N=C(NCCCCCCNC(N)=O)NCCCc1c[nH]cn1  Ki (HRH1; ligand displacement, radioligand; cell membranes): > 10 µM
CCC[C@H]1c2ccccc2C=NN1C(=O)/C=C/c1cc(Cc2cnc(N)nc2N)cc(OC)c1OC (racemic)  Ki (Dihydrofolate reductase (Enterococcus faecalis, UniProt Q834R2); enzyme activity, inhibitor; together with: dihydrofolate (Km 10.9 µM)): 0.0045 µM
O=C(O)c1c(Cl)c(Cl)c(Cl)c(Cl)c1-c1c2cc(I)c(=O)c(I)c-2oc2c(I)c(O)c(I)cc12  Ki (Dual specificity protein phosphatase 5 (Homo sapiens, UniProt Q16690); enzyme activity, noncompetitive inhibitor; 15 min, light, two-Ki model): 0.08 µM
O=C(CCc1ccccc1)N(O)C/C=C/P(=O)(O)O  Ki (DXR; inhibitor, Lineweaver-Burk plot; together with: DXP varied, NADPH 150 µM): 0.338 µM
O=[N+]([O-])c1ccc(C=Cc2ccc([N+](=O)[O-])cc2S(=O)(=O)O)c(S(=O)(=O)O)c1  Ki (SLC4A1 (Homo sapiens, UniProt P02730); chloride self-exchange, competitive inhibitor, 36Cl- efflux; human erythrocytes; 38 °C): 0.115 µM
CC(C)=CCC/C(C)=C/CO  Ki (MSP; binding, fluorescence displacement; together with: 1-AMA 2 µM): 0.63 µM
Cc1nc(N)sc1CCCNC(=N)NCCCCCCCCCCCCNC(=N)N  Ki (HRH1; ligand displacement, radioligand; cell membranes): 0.562 µM
C/C(=N\Nc1cc(C)nc2ccc(C)cc12)c1cn(C)n(-c2ccccc2)c1=O  Ki (APEX1; enzyme activity, inhibitor): 10.9 µM
CCCCCCCCOC(=O)NS(=O)(=O)Nc1ccc(-c2cc3ccccc3[nH]2)cc1OC  Ki (Polyunsaturated fatty acid lipoxygenase ALOX15 (Oryctolagus cuniculus, UniProt P12530); linoleic acid oxygenation, inhibitor; together with: linoleic acid): 7.41 ± 0.87 µM
O=P(O)(O)OC[C@H]1N[C@H](COP(=O)(O)O)[C@@H](O)[C@@H]1O  Ki (Orotate phosphoribosyltransferase (Plasmodium falciparum, UniProt Q8I3Y0); enzyme activity, inhibitor, absorbance; pH 8): 39 µM
CCCN(CCC1(O)CC(NC(=O)c2ccccc2Cl)C1)[C@H]1CCc2nc(N)sc2C1 (stereo in doubt)  Ki (Drd3; ligand displacement, radioligand; cell membranes): 0.00062 µM
Cc1ccc(-c2ncc(NC(=O)Cn3cc(COc4ccc(-c5nc6ccc(C)cc6[nH]5)cc4)nn3)s2)cc1  Ki (α-glucosidase; inhibitor, Lineweaver-Burk secondary plot): 8.3 µM
CCCN(CC[C@]1(O)C[C@@H](NS(=O)(=O)c2ccc(F)cc2)C1)[C@H]1CCc2nc(N)sc2C1 (relative stereo)  Ki (dopamine D1-like receptor, rat; radioligand binding; rat striatal membranes; together with: [3H]SCH23390): 102 ± 5.39 µM
CCCCCCC(C)=O  Ki (MSP; binding, fluorescence displacement; together with: 1-AMA 2 µM): 1.48 µM
CCCN(CC[C@]1(O)C[C@H](NS(=O)(=O)c2ccccc2OC)C1)[C@H]1CCc2nc(N)sc2C1 (relative stereo)  Ki (Drd3; ligand displacement, radioligand; cell membranes): 0.0023 µM
CNc1nc(C#CCCCCC(=O)NCCN)nc2c1ncn2[C@H]1C[C@H](OP(=O)(O)O)[C@]2(COP(=O)(O)O)C[C@H]12  Ki (P2RY1; ligand displacement, radioligand; cell membranes): 3.96 µM
CC(C)[C@H](NC(=O)[C@H](CCC(N)=O)NC(=O)[C@H](CCC(=O)O)NC(=O)[C@H](CCC(N)=O)NC(=O)[C@H](CC(N)=O)NC(=O)[C@@H]1CCCCN1C(=O)CNC(=O)COCCOCCNC(=O)[C@H](CCCNC(=N)N)NC(=O)[C@@H](N)Cc1ccccc1)C(=O)O  Ki (FAP (Homo sapiens, UniProt Q12884); enzyme activity, inhibitor, fluorescence; pH 7.5): 14 µM and 14.8 µM
CCCCCCCCCCCO  Ki (MSP; binding, fluorescence displacement; together with: 1-AMA 2 µM): 0.36 µM
OC[C@H]1OC(O)[C@H](O)[C@@H](O)[C@H]1O (stereo partly shown)  Ki (Probable beta-galactosidase A (lacA, Emericella nidulans, UniProt Q5BFC4); p-nitrophenyl glucoside hydrolysis, competitive inhibitor; Aspergillus nidulans; 37 °C, together with: 5 mM p-nitrophenyl glucoside): 10200 µM

Some of these lines once more:
CCn1c2ccccc2c2cc(/C=N/Nc3cc(C)nc4cc5c(cc34)OCO5)ccc21  Ki (APEX1; enzyme activity, inhibitor): 0.12 µM
O=C(O)[C@H]1NCC[C@@H]1[C@@H](C(=O)O)c1ccccc1  Ki (NMDA receptor, rat; binding; cortical synaptosomes; together with: [3H]-CGP 39653): > 100 µM
CCCN(CC[C@]1(O)C[C@@H](NS(=O)(=O)c2ccc(F)cc2)C1)[C@H]1CCc2nc(N)sc2C1 (relative stereo)  Ki (dopamine D1-like receptor, rat; radioligand binding; rat striatal membranes; together with: [3H]SCH23390): 102 ± 5.39 µM
N=C(N)NCCCCCCCCCCNC(=N)NCCCc1c[nH]cn1  Ki (HRH1; ligand displacement, radioligand; cell membranes): 0.813 µM
CNc1nc(C#CCCCCC(=O)NCCN)nc2c1ncn2[C@H]1C[C@H](OP(=O)(O)O)[C@]2(COP(=O)(O)O)C[C@H]12  Ki (P2RY1; ligand displacement, radioligand; cell membranes): 3.96 µM
COc1cc(O)cc2ccc3cccc(O)c3c12  Ki (alpha-glucosidase (Saccharomyces cerevisiae); inhibitor, Lineweaver-Burk secondary plot): 31.8 µM
N=C(NCCCCCCCCCCN)NCCCc1c[nH]cn1  Ki (HRH1; ligand displacement, radioligand; cell membranes): 0.871 µM
